Published values gathered from unrelated publications.
Every numbered part comes from another study and shows a few of its results, in no order.

Study 1 — method: protein binding microarray; molecule type: double-stranded DNA, one strand shown; medium: in vitro; concentration: not given; reference: not given; reading: higher = stronger binding
Target: Histone acetyltransferase KAT6A, winged helix 2, GST fusion (KAT6A, Homo sapiens, UniProt Q92794, residues 85-181)
Setting: 8-mer, flanks averaged, mean of 2 arrays, mostly near background
Construct (chain): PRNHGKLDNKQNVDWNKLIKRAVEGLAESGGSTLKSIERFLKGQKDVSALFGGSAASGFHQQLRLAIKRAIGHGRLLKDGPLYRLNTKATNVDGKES
Strand | E-score
AATGAGGC | 0.0486
CACCCCGA | -0.00528
GTTGCCCA | 0.0527
AAATGTAG | -0.132
ACTACCTC | 0.0405
GTCTGAAC | 0.0343
AAGCGTAA | -0.00653
CCTAGATC | -0.15
CATGTGGC | -0.00867
ACACAACT | -0.17
AATGTCCA | -0.0422
CGTAGAAC | 0.000105
CGAAAGCC | -0.0179
AATTTACG | -0.00208
CACCCTTA | -0.029
CTGCCAGA | 0.0083
GTCACCCA | 0.014
GCTACCAC | 0.00156
AAAAGCTC | 0.0987
CCATGCGC | 0.0407
AAATAGGG | -0.0196
ACTCCCAG | -0.122
AAGCAATG | 0.0746
GTCGCAAA | 0.0383
CGGTGGTC | -0.112

Study 2 — method: RNA Bind-n-Seq; molecule type: RNA; medium: in vitro; concentration: 100 nM; reference: input RNA pool; reading: higher = stronger binding
Target: RING finger protein unkempt homolog, zinc fingers 1-6, SBP tag (UNK, Homo sapiens, UniProt Q9C0B0, residues 30-357)
UniProt Q9C0B0, sequence (30-357, looked up): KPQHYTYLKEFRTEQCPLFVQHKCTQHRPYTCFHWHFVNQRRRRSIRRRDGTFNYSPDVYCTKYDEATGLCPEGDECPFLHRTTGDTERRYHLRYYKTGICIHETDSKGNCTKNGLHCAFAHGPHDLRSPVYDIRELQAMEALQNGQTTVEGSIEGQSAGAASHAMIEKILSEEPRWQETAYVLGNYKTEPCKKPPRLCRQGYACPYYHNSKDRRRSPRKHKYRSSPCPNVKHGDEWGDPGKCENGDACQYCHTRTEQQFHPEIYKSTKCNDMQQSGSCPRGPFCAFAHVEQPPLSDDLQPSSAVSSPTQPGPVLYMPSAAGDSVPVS
Setting: RNA with constant flanks, vertebrate orthologous sites, ends assumed
All sequences stand within: GGGAGUUCUACAGUCCGACGAUC … CAACAGAGGAUUGAGCAUCA
Strand | bound/input enrichment [ratio]
ACCCCGAUUUUAGAUGUGAUAUCUAGGCUUUCAUUCCAGUUUGUUUUGUCUUUUCUUGUUUAGAUACCAACCUUUUAAAUUCUUGCAUUUUAGUAAGAAAAGCUACCUUUUUAUGGAUGU | 0.823
CAGCGCCAUGGUCGAUGGCACAGAGCUCAAGAAAGUGAGAUCCAAUUCACGCAUUUAUCACCGCUACUUUCUCCUUGACGCCGACAUGCAGUCCUUGAGAUGGGAGCCCACCAAGAAGGA | 0.174
CAUGGGCCCCCUGUGAUUGAAAAUGGGGGUGGCUCAAGAUGACCCUCAGCUGUUCCAAUCCAGUAUUUUUCUCUUUUUUAAAAAAUUACUGUAUUUAUUAUGACAAUGGUGACUCCCCGU | 0.348
GAGCUAAAGGAGUUAGCAUCUUUAUUUUUGUAUCAAAGAUAAAGGUUAUUUUGAAAUUAUUAGGAUUUUUACACAACUCUGAAAUCUGUUUGCUUUUGUAAACUAAUUGUUUGACCUAGG | 0.93
GGAAAGUUACAGACCAGACUCUGAAAGCAGGAGUACAGGAUCCUGGUUAUCGUCAUCUUUGAGGAACAGAUGUACACCGCUCUUUUCCAGAAGAAGAAGAGAAGGGAGAGAUGAAUCUGC | 0.421
UCUCUCAUUUUAUAUGUCCAAAAAAGGUUUUUGAAUUUUUAAAUACUUGCUAGUUUUGGUUAGCUCUGCCCUCAUGAAGUAUUACUAUAAUUCACCACAAACAGGUAUCUGUCUGAAUUA | 0.255
AUCUCAUGUAGUUUUUAAUUUCAAGCAAAUCUUAUUGUACUUGAAUGUGUCCUGUUUUGUUAGCACACCUAGACUUGCUGUAACUGUACUCAUGUCCCAGUAUGUACGUUCUUUCUAUGA | 1.05
GCAAUGAAAAGACAGCCCUCCUCCCAGCCCCCAACUCACUAGGAGACACAAACGUUACCAUAGAAGAGCAAUUUAACUCAAUAAAUUUAUCUUUUCAGGAUGAUCCCGACUCCAGUACCA | 0.598
AUUUCAAAUGUAGCUAGUUAUAUUUAAUGACCUCAUUCCUGAGUUCCUUUUUCAUUAAAGUAGCUUUCAUUUCUUUUAUUGCAUUUUUAAAAAUAUGAAUAAAGAAAAGGUUCGUGCCAG | 0.255
UGCUGUUAAAGCACUGUUUUCCAGGCAUUGUCUGAAUUUAGUGUAAUCUAGGAGAUUUUAUAGUCUUAUUUUAAUGAAGUUUGGAUUGAUGGCGAAGUUGUUAGCAUAGUCUUUUAUUCG | 1.92
CACAUCAGGUGAUAUAUGGCCUGGCCUUUCUGCUUAUGAUAAUAGUCCCAGAUCACCCCAUAGUCCUUCACCUAUUGCUACACCACCUAGUCAGAGUUCAUCAUGCUCUGAUGCCCCCAU | 0.693

Study 3 — method: RNA Bind-n-Seq; molecule type: RNA; medium: in vitro; concentration: 365 nM; reference: no-protein control; reading: higher = stronger binding
Target: RNA binding protein fox-1 homolog 2, RRM domain, GST-SBP tag (RBFOX2, Homo sapiens, UniProt O43251-10, residues 100-194)
Setting: natural RNA segment, single round, ends assumed
All sequences stand within: GGGAGUUCUACAGUCCGACGAUC … UGGAAUUCUCGGGUGCCAA
Construct (chain): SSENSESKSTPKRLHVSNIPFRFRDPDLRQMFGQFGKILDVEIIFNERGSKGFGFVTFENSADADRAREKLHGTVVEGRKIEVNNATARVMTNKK
Strand | RBNS enrichment (R)
UUCUGGCCUCUGCCUGGGACAGUAAAGGAUGGAGGAUCAGGCCUGGAGCCCCAGCCCCACCUUAGCCCUGCUGAGGCUCCAUGGCUUCUCCACUUCUUCUCAUGUGACCU | 0.442
CCGUGUGAGCAGACGCUCAGAACAGAGCCCUUGGCCCUUCGAGUUCUUUCUUACGAGUUUGCCGUUCUCACUUCUGUGGGCUCCUAUACCUUGAGUGGGAUGAGUCUUAG | 0.434
UGCUUUCCCUCGCAAGCCCUUCUAUAGCUCCCAGCCCACGGGAGAGGCCAUGAGGAGCGCGAGGUCGCCAGCAGCCCCACUGGGCCUCCCACACCAUCUGAGUGACUUGA | 0.332
GACUCCACCUUCCCAGACACCUACUUUAAGGACCUGUGGAAACUGGGUGAUCCAAUUAUAGGGCUGGGGCAACCCUGCUUUGGCCACCCUCAUUUACAAACUUAGGUUGG | 0.323
GACUGUGUGAUUGAGCCCAAGAAGCCAGAGACUAUGCAUUUGGCCGCUGCCAAGGGGGGGAUUGCUCACUUCACGUGCAGUUUGUCCAGUUACUCAGCCCUUUUUAUUUC | 0.518
UGUGGCAGCCUCCUGAGAGCCACCAAGAUCUGGGAUGAAGGCCACACCAGCCAUGUCUGCUGAAGGGCCCCAGACUGAGAUGACUCCGGCCUCCACAGUUAGAUGUUUAU | 0.389
GCAUUUUUAUUAAUGUGUAGAUUUAUGGUCUGAUCUGAAGAUGUUUGAGUAAUAUAUUUUUAAGAACACCACUGGUCCUGUAAGUCUUGCCUCCUUGGCUUCUACUAGAG | 0.237
CCAUGUAUUCCCCACCUGUGUUCCGUUUGACCAGCACAGAAAUAUUAAACGUCCUCUAUUCACCGGGCCCUGUGUGUGUCACCGAGGUGCGGGAGGGGAGGAGCAUUAAA | 0.424
CUAGAAUCUUUUUCUGAUUUUUAACUCCAGGAGAGAUAGCAUUUUCCUUACAUUAUAAAAUAAAAGCAGUGAAGUAAAUUGACAGCUAAGGAUCUCUAUUUCAUCUCUUG | 0.528
CCGUGUGUUUAGAAGCCUAAUUGUCACAUCAAGCAUCAUUGUCCCCAUGCAACAACCACCACCUUAUACAUCACUUCCUGUUUUAAGCAGCUCUAAAACAUAGACUGAAG | 0.562
CUUUAGUUGGGUUUAUUUCCAGGUCACAGAAUUGCUGUUAACACUAGAAAACACACUUCCUGCACCAACACCAAUACCCUUUCAAAAGAGUUGUCUGCAACAUUUUUGUU | 0.205
CAUCUGAAUAAUCAAUGUAAAUAUUUUCUUUCAAAGUUGUAAGUUUUCAUAUCAUGUGCUGUAAAGUUUUCCUAAAUGAGGCUUUAACGUAAACACUGGUGACAUAAACC | 0.511

Study 4 — method: RNA Bind-n-Seq; molecule type: RNA; medium: in vitro; concentration: 1 µM; setting: whole 134-nt RNA, ends assumed; with: 150 mM KCl; reference: input library; reading: higher = stronger binding
Target: Ras GTPase-activating protein-binding protein 1, RRM domain (G3BP1, Homo sapiens, UniProt Q13283)
UniProt Q13283, sequence (whole entry, looked up): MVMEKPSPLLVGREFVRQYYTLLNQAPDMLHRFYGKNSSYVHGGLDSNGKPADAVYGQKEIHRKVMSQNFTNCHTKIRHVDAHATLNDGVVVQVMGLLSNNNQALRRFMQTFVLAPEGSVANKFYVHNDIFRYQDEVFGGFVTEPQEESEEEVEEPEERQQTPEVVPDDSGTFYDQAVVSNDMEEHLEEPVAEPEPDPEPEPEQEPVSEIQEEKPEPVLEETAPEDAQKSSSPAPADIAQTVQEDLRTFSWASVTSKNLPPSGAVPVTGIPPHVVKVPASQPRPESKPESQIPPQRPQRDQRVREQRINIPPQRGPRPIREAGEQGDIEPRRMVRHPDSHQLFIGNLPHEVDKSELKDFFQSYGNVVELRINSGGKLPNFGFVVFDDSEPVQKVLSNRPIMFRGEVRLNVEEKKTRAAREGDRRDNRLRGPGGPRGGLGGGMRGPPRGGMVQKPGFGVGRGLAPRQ
All sequences stand within: GGGAGUUCUACAGUCCGACGAUC … UGGAAUUCUCGGGUGUCAAGG
Strand | log2 enrichment
UAACUUUAGAGGAGGAUCUGAUGGAUAUGGCAGUGGACGUGGAUUUGGGGAUGACUAUAAUGGGUAUGGAGGAGGACCUGGAGGUGGCAA | -0.142
UGGGAGGUGGAUUUUGUUUAUUUUUUUAGCUCAUUUCCAGGGGUGGGAAUUUUUUUUUAAUAUGUGUAAUGAAUAAAGUUGUUUUUGAAA | 2.19
AAGUCCUGUGCUACACAUCGUAUGUACCGAAUCGGGAAAAAGGGUGGGAAAAAGGGAAAGUAUUAUGUUACGCCGUUCGGAUCUGCACUU | 0.512
UCCUGCCAACCUCUCUUAAUGCUCUGAGAGCCUCUGGUGUUGACAUAGAAGAGGAAACGGAGAAGAACCUGGAAAAGGUACAGACUAUCA | -0.252
GCGGACCGAGAAAGUCGUUACGAGGAAGAAGAAGAACAAAGUCGAAGUAUGAGCCGGAAGAGGAAGGCAUCUGUGCACAGUUCGGGCCGU | -0.0206
AAGUCCUGUGCUACACAUCGUAUGUACCGAAUCGGUUUGGUUUUUUUGGUUUUUGGAAAGUAUUAUGUUACGCCGUUCGGAUCUGCACUU | -0.181
CUCAAGUCCUGUGCUACACAUCGUAUGUACCGAAUCGGCCGGGCCGGGGCCGGAAAGUAUUAUGUUACGCCGUUCGGAUCUGCACUUCCA | -0.458
UCCUGUGCUACACAUCGUAUGUACCGAAUCGGGUUUUUUGGUUUUUUGGGGUUUUUUGGAAAGUAUUAUGUUACGCCGUUCGGAUCUGCA | -0.0591
UCAAGUCCUGUGCUACACAUCGUAUGUACCGAAUCGGAAGGGGAAGGGGAAGGGGAAAGUAUUAUGUUACGCCGUUCGGAUCUGCACUUC | 0.645
CCUCAAGUCCUGUGCUACACAUCGUAUGUACCGAAUCGGGUGGGGUGGGUGGGAAAGUAUUAUGUUACGCCGUUCGGAUCUGCACUUCCA | -0.405

Repeated from above (study 1):
Strand | E-score
AATGTCCA | -0.0422
GTCACCCA | 0.014
CTGCCAGA | 0.0083
AAATGTAG | -0.132
CGAAAGCC | -0.0179
AAATAGGG | -0.0196
GTTGCCCA | 0.0527
CATGTGGC | -0.00867
ACACAACT | -0.17
